Published values collected from several papers.
Each numbered part is a random draw from the data of one study; scales do not carry over between parts.

Set 1 — technique: RNAcompete; form: RNA; sample: in vitro; tested at: 20 nM; notes: 7-mer, probes averaged, single round; baseline: mean of 7-mers; direction: higher = stronger binding
Target: PABPC1L2, full length, GST fusion (mouse, UniProt A0ABA7IW68)
Target sequence (chain): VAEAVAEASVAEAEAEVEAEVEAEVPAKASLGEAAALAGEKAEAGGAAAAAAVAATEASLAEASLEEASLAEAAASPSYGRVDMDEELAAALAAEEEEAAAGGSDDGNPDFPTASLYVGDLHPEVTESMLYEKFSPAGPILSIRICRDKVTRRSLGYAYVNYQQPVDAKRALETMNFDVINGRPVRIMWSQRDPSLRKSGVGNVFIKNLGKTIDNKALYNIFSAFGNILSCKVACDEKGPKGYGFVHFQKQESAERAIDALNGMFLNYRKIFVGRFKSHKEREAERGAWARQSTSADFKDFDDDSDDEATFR
The 7-mer Z-score of `AUUUGUU` is reported as -0.403.
With `AAAAUAG` the 7-mer Z-score was 7.25.
With `GCGUACU` the 7-mer Z-score was -0.151.
`GCUACAG` gave a 7-mer Z-score of -0.0899.
For `GAGUAAA`, the 7-mer Z-score was 0.822.
With `AUCACGU` the 7-mer Z-score was -0.291.
`CGCAACG` gave a 7-mer Z-score of -0.13.
The 7-mer Z-score of `UUUUCCU` is reported as -0.38.
`CACUCCA` has a 7-mer Z-score of -0.244.
The 7-mer Z-score of `CUCGAGA` is reported as -0.144.
For `GGUGUCC`, the 7-mer Z-score was -0.146.
`CCUCCAG` gave a 7-mer Z-score of -0.342.
With `GUUAGCU` the 7-mer Z-score was -0.19.
With `UGAUGGG` the 7-mer Z-score was 0.0678.
With `GGCUGCA` the 7-mer Z-score was 0.173.
With `ACUAACC` the 7-mer Z-score was -0.0881.
The 7-mer Z-score of `CAAGUAG` is reported as 0.0623.
The 7-mer Z-score of `GUAGGCU` is reported as 0.0805.
With `UGCAACC` the 7-mer Z-score was -0.0808.
The 7-mer Z-score of `UCCCCUA` is reported as -0.362.
The 7-mer Z-score of `CUCACUC` is reported as -0.282.
`UGUGGCG` has a 7-mer Z-score of 0.0352.
`AUCCGUU` gave a 7-mer Z-score of -0.318.
For `UGGAGCA`, the 7-mer Z-score was -0.0409.
The 7-mer Z-score of `CAAGAGC` is reported as 0.128.

Set 2 — technique: RNA Bind-n-Seq; form: RNA; sample: in vitro; tested at: not given; baseline: input RNA pool; direction: higher = stronger binding
Target: RING finger protein unkempt homolog, zinc fingers 1-6, GST-SBP tag (UNK, Homo sapiens, UniProt Q9C0B0, residues 30-357)
Chain of UniProt Q9C0B0 (30-357, looked up): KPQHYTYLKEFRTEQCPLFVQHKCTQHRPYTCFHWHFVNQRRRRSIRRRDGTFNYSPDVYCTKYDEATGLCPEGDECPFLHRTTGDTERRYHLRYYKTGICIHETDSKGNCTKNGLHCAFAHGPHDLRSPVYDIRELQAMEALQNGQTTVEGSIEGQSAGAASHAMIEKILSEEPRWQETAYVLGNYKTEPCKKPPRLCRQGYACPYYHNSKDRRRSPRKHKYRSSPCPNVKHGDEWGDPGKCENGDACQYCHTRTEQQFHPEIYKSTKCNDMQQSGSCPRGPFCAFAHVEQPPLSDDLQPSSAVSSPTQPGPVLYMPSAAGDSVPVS
Notes: RNA with constant flanks, human-mouse chimeric sites, ends assumed
`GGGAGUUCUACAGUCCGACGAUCCUGAAAAACACAGAUAUCAAAGUUGUUGAUUUUGGAAGUGCAACGUAUGAUGAUGAACAUCACAGUACUUUGGUGUCUACCCGGCACUACAGAGCUCCCGAGGUCAUUUUGGCUCUAGGUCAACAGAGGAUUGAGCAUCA` gave a bound/input enrichment of 0.357 ratio.
`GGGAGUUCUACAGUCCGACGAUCCGGAGCCCUCCUCUCCCACAGGCCCAAGAUAUAACCCACCAGUGCCUUUUGUCUUCCUGUCAGCUCUGUCAAUCACGCCUGUCCUCUCACGCCCACACUCCCCAGCCCCACCCCUAAGGGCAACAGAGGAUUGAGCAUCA` gave a bound/input enrichment of 0.526 ratio.
For `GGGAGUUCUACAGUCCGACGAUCGGCUGCUGGUGACUGUCCUGGAGUGGCUGGAGUUCCCGCCGGAGCGCGGCCAGACUAAUUAUAGAAAAUGCCAAGUAGGAAAUUUGCUGAGGGUGAAGUGGUCAGAGGCCGAUGGCCUGGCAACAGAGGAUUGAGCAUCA`, the bound/input enrichment was 4 ratio.
With `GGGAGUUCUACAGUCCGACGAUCGGGGAGAAACCUUACGAGUGUGUGCAGUGUGGGAAAUCCUACAGUCAAAGCUCAAAUCUUUUUAGACAUCAGAGACGACACAAUGCAGAAAAACUUUUGAAUGUUGUGAAGGUUUAAGAACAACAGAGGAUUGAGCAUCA` the bound/input enrichment was 0.121 ratio.
For `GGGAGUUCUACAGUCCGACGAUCAGAUUCCCCCUCCUGAGACCUCCUCCGAAGUUGGAGUCUCUUACAGAUGGUUCAUCUCCUGUUAGCGUUUUAGUUUGGACCACCCAGCCUUGGACAAUUCCAGCCAACCAGGCAAUUUGCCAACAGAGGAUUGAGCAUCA`, the bound/input enrichment was 2.43 ratio.
For `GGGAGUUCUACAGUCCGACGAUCGGUGGGGUGGUCAUUGCCGUUUGAGCUGCUGAUUUUCAUGAGUCGCCUUCAAAACUCUCGUGUAGGGUUGACAAUGUAAGGGGUGGGGGGAUCCAGCUUAUUCUUUUAUUUUCAAGUCCACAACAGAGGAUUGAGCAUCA`, the bound/input enrichment was 0.504 ratio.
`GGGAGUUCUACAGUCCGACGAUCCAGUCCCCGUGUCCCAGGGGACAAUGUUGUGAACAAAAACUCAAAGCGGACCCUCUAUUGUAGUUCUUGAUUCUCGAAAUGUGCUAUUAUUGUUUGUCUUUUUUUUUAAAAGAAAAGAGACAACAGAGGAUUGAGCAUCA` has a bound/input enrichment of 0.962 ratio.
For `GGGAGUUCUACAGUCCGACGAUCGCAGGAUCUUCUAAGUACCAGUGGGACAUUAUGAAAUCCCUUGGGCUCUCUGAUGACGACAUAGUGAAAUUUUCUGAAGCAGAGCACUGGCUUGAUUAUUUCCCACCACUGGCCGUUCAGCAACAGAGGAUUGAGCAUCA`, the bound/input enrichment was 0.296 ratio.

Set 3 — technique: universal PBM; form: double-stranded DNA, one strand shown; sample: in vitro; tested at: 600 nM; direction: higher = stronger binding
Target: Sal-like protein 4, full length isoform A (SALL4, Homo sapiens, UniProt Q9UJQ4, residues 1-1053)
Chain of UniProt Q9UJQ4 (whole entry, looked up): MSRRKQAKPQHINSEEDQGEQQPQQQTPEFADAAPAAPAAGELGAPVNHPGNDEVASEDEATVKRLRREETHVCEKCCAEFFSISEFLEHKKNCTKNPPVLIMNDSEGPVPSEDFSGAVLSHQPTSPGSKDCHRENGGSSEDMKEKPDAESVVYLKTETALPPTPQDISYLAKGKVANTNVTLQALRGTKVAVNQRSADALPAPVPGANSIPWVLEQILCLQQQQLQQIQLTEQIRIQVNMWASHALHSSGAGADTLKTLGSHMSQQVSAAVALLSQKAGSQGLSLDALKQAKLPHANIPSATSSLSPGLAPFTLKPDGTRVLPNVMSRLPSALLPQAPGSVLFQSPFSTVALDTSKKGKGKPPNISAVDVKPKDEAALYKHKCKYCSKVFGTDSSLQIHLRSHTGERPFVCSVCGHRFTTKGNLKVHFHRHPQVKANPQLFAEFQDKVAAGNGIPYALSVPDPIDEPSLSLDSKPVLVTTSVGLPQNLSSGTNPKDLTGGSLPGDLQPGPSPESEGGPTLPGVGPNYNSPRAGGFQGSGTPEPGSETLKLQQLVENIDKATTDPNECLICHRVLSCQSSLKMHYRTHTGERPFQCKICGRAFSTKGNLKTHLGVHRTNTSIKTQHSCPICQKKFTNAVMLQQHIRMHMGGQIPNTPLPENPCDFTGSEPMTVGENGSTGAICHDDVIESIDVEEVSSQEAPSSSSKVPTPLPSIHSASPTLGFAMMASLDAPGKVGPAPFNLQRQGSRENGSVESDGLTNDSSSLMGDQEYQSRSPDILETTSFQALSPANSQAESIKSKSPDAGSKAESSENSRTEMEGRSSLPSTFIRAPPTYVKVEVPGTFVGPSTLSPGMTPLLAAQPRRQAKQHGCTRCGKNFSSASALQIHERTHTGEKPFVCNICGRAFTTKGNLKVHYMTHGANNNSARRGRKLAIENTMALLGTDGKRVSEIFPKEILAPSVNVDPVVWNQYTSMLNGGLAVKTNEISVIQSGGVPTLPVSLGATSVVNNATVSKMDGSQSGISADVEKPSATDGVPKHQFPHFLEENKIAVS
Notes: 8-mer, flanks averaged, mean of replicates
`GCAGACAA` has an E-score of -0.0418.
For `TCCACTAA`, the E-score was 2e-05.
With `CACCCGGG` the E-score was -0.351.
With `GCCGGCAC` the E-score was -0.347.
`CTTGCACC` gave an E-score of -0.145.
`AACCACTC` gave an E-score of -0.169.
With `AGAATGAG` the E-score was 0.073.
`ATCGAATA` gave an E-score of 0.254.
`AGAAAGCT` has an E-score of 0.0113.
`TGGTGTAA` has an E-score of 0.0173.
With `AGAGGGCA` the E-score was -0.168.
For `CTCGGCCC`, the E-score was -0.339.
`CCCGTGGC` gave an E-score of -0.386.
The E-score of `CAGGTACC` is reported as -0.309.
`GACCTTAA` has an E-score of 0.0462.
`CATGATCA` gave an E-score of 0.208.
The E-score of `CTGGAGGC` is reported as -0.108.
`CACTCTCA` gave an E-score of -0.0131.
The E-score of `ACGCCCGC` is reported as -0.352.
`CGCGGACA` gave an E-score of -0.103.
The E-score of `ATGTAGCC` is reported as -0.0324.
The E-score of `GTAATCAC` is reported as 0.081.

Set 4 — technique: RNA Bind-n-Seq; form: RNA; sample: in vitro; tested at: 365 nM; baseline: no-protein control; direction: higher = stronger binding
Target: RNA binding protein fox-1 homolog 2, RRM domain, GST-SBP tag (RBFOX2, Homo sapiens, UniProt O43251-10, residues 100-194)
Notes: natural RNA segment, single round, ends assumed
Target sequence (chain): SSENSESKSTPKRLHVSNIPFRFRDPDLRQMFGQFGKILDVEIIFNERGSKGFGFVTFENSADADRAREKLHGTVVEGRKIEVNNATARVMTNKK
For `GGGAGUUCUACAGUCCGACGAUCGGAUUGUUAAACAGUAGAAAUGCAUGUCCUUCCCCAGUAAGCGGAGGACCAAUUUCUCAAGUCUCAGGGUUAUCAUAAAACCUUACUAACUUUAUCUUUCAUUUUUUAAAUGGAAUUCUCGGGUGCCAA`, “RBNS enrichment (R)” read 0.649.
Under “RBNS enrichment (R)”, `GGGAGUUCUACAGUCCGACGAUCUGCAGCCUGAACUCCCUUGAGCAGCGCUAUAAGGGACUUUGCACUUUAAAAAGGGGAUGCCUGUCAGUAAAUCCCCUGUGCAUUGACUAGAACUGGGGGGCUGCGCCCGCUGGAAUUCUCGGGUGCCAA` is recorded as 0.838.
`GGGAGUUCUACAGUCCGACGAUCUUGAAAAGAGAUUUGAAGAAACUGACAACUUCAAAAACAAAUGAGAAGCCCAAGGAACUGUGAGCAAUUAAAAGCAAACCGCGACACCCUUUGUCUCCACCACACAUAGUUGGAAUUCUCGGGUGCCAA` — result for “RBNS enrichment (R)”: 0.334.
`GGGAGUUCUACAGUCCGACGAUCCUGGAUGAGAAUUUGAGUGCUCUGAUCCCUCUACAGAGCUUCCCUGACUCAUUCUGAAGGAGCCCCAUUCCUGGGAAAUAUUCCCUAGAAACUUCCAAAUCCCCUAAGCAUGGAAUUCUCGGGUGCCAA`: “RBNS enrichment (R)” 1.01.
`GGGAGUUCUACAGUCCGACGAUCUGUGCAGAGUUAGGUUCCAUCUCCAGCAUCACGCACGGGUCUUGUGAACACCGACAUCUUCAGUUUACUUGUGUCUGCAGUUCUGUGGACAGAACAAAGCCAUUCACAAGUGGAAUUCUCGGGUGCCAA`: “RBNS enrichment (R)” 0.365.
For `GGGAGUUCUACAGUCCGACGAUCACAAGAUAUGAAGAAAAUGGCACUCAUUGUGGCCUUGUUGAAUUAUGUUGUGUAUGUUUUAACAUCUCUGAUGCUGUGUUACUAAAAUUACAAGGACCUGCUUUUUAAAAUGGAAUUCUCGGGUGCCAA`, “RBNS enrichment (R)” read 0.71.
`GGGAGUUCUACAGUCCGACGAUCCUGAUAGAAUCUGUAAGCUAAUAAAAAAUAUAAGAAAAAGGUUAAAAAAAAAAGAAUAGGUAAAUUGACAAGAAAUAUUUAUUGUUUUCCCUUAUUGCCUUAUUGUCCCUUGGAAUUCUCGGGUGCCAA`: “RBNS enrichment (R)” 0.471.
Under “RBNS enrichment (R)”, `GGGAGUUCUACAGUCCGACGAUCGCCAUUGGCGGUUCUGCUGCUUCGCUGCAGGGAUAAGGUGGAGCUACCGAACAGCUGAUUCAUAUGCCAAGAAUUUGGAGUCUUCUUUCAAACCAGUGGGGGUUGGACAAUGGAAUUCUCGGGUGCCAA` is recorded as 0.409.

Excerpt of the above (set 1):
The 7-mer Z-score of `CUCGAGA` is reported as -0.144.
For `GGUGUCC`, the 7-mer Z-score was -0.146.
`CCUCCAG` gave a 7-mer Z-score of -0.342.
With `GUUAGCU` the 7-mer Z-score was -0.19.
With `UGAUGGG` the 7-mer Z-score was 0.0678.
